Experimental data from different studies.
Compare with care: the assays were run in different laboratories. ± gives the spread as reported.

| Compound | test | test system | conditions | scale | endpoint | value |
| --- | --- | --- | --- | --- | --- | --- |
| CC(C)OC(=O)[C@H](CCC(=O)C=[N+]=[N-])NC(=O)OC(OC(=O)C(C)(C)C)C(C)C (mixture of isomers) |  | swine plasma | 10 µM, 60 min, 37 °C |  | remaining compound | 100 ± 3% |
| CCNc1nc(Cl)nc(NC(C)C)n1 | LC-MS/MS | herbicide solution | 2 h, 23 °C, added: 365 nm UV exposure |  | remaining amount | 139 ± 23.5% |
| CC(C)[C@@H]1NC(=O)CNC(=O)[C@H](CC(N)=O)NC(=O)[C@H](CCCNC(=N)N)NC(=O)[C@H](Cc2ccc(O)cc2)NC(=O)[C@H](C(C)C)NC(=O)[C@@H](NC(=O)[C@@H](NC(=O)[C@H](CC(N)=O)NC(=O)[C@H](Cc2c[nH]c3ccccc23)NC(=O)[C@H](C)NC(=O)[C@H](Cc2ccccc2)NC(=O)CN)C(C)C)CSSC[C@@H](C(=O)N[C@@H](Cc2cnc[nH]2)C(=O)N[C@@H](CCCNC(=N)N)C(=O)N[C@@H](CCCNC(=N)N)C(=O)N[C@@H](C)C(=O)N[C@@H](CC(N)=O)C(N)=O)NC(=O)[C@H](C(C)C)NC(=O)[C@H](CCCNC(=N)N)NC1=O |  | mouse kidney homogenate | 2560 µM, 8 h |  | remaining peptide | < 9.76% |
| CC[C@H](C)[C@H](N)C(=O)N[C@@H](CO)C(=O)N1CCC[C@H]1C(=O)N[C@@H](CCCNC(=N)N)C(=O)N[C@H](C(=O)N[C@@H](CC(C)C)C(=O)N[C@@H](CC(N)=O)C(=O)N[C@@H](C)C(=O)N[C@@H](Cc1c[nH]c2ccccc12)C(=O)O)[C@@H](C)O |  | cytosolic extract | 1 nmol, 10 min, pH 7.4, 37 °C | baseline: time 0 | remaining epitope | < 50% |
| COc1ccc2cc(C(=O)NCCc3ccc(OP(=O)(CC/C=C(\C)COC(C)=O)OC)cc3)c(=O)oc2c1 (centres unmarked) |  | human plasma 50% in PBS | 100 µM, 24 h, pH 7.5 |  | remaining compound | 27 ± 2% |
| CC[C@@H](C)[C@@H]1NC(=O)[C@@H](CC(C)C)NC(=O)CN(C)C(=O)[C@H]([C@H](C)CC)NC(=O)[C@@H](CC(C)C)NC(=O)CN(C)C1=O |  | human plasma | 2 h, 37 °C |  | remaining compound | ≥ 90% |
| CC[C@H](C)[C@@H]1NC(=O)[C@@H]2CSSC[C@H](NC(=O)[C@H](Cc3ccccc3)NC(=O)[C@@H](NC(=O)[C@@H](CO)NC(=O)[C@@H](Cc3ccccc3)NC(=O)[C@@H](CC(C)C)NC(=O)[C@@H]3CCCN3C(=O)[C@@H](CC(C)C)NC(=O)[C@@H](Cc3ccccc3)NC(=O)[C@@H](CCC(=O)O)NC(=O)[C@@H](C)NC(=O)[C@@H](Cc3ccccc3)NC(=O)[C@H](N)C(C)C)CSSC[C@@H](C(=O)N[C@@H](CC(C)C)C(=O)N[C@@H](CC(N)=O)C(N)=O)NC1=O)C(=O)N[C@@H]([C@@H](C)O)C(=O)N[C@@H](CCCNC(=N)N)C(=O)N[C@@H](CCSC)C(=O)N[C@@H](CO)C(=O)N1CCC[C@H]1C(=O)N1CCC[C@H]1C(=O)N[C@@H](CCC(N)=O)C(=O)N2 |  | pronase digestion | 20 h, pH 8.0, 25 °C, added: 1 M guanidine HCl |  | remaining intact peptide | 55% |
| CCc1cccc(CC)c1N(COC)C(=O)CCl | LC-MS/MS | herbicide solution | 2 h, 40 °C, added: 365 nm UV exposure |  | remaining amount | 3.13 ± 0.56% |
| C/C(=C\CCP(=O)(OCOC(=O)c1ccc(/N=N/c2ccc(N(C)C)cc2)cc1)Oc1ccc2ccc(=O)oc2c1)CO (centres unmarked) |  | human plasma 50% in PBS | 100 µM, 24 h, pH 7.5 |  | remaining compound | 49 ± 4% |
| CCc1cccc(C)c1N(C(=O)CCl)C(C)COC (centres unmarked) | LC-MS/MS | herbicide solution | 2 h, 4 °C, added: 254 nm UV exposure |  | remaining amount | 16.8 ± 6.4% |
| C#Cc1ccc2c(c1)C(c1ccccc1F)=N[C@@H](C)c1c(C(=O)OCCC)ncn1-2 | metabolic stability | human liver microsomes | 0.5 h |  | remaining compound | < 5% |
| CCNc1nc(Cl)nc(NCC)n1 | LC-MS/MS | herbicide solution | 2 h, 23 °C, added: 365 nm UV exposure |  | remaining amount | 30.8 ± 3.52% |
| CC(C)C(=O)OC[C@H]1O[C@@H](n2ccc(NO)nc2=O)[C@H](O)[C@@H]1O |  | rat brain dialysate | 250 ng/mL, 6 h, room temperature, bench-top stability, added: NHC 1000 ng/mL |  | remaining compound | 104 ± 1.44% |
| CN1CC(=O)O[C@H](Cc2ccccc2)C(=O)NCC(=O)N(C)CC(=O)O[C@H](Cc2ccccc2)C(=O)NCC1=O |  | human plasma | 2 h, 37 °C |  | remaining compound | 67% |
| Cc1cc2c(C(C)C)c(O)c(O)c(C=O)c2c(O)c1-c1c(C)cc2c(C(C)C)c(O)c(O)c(C=O)c2c1O |  | acetonitrile extract of human plasma | 3.585 µg/mL, 24 h, 4 °C, autosampler |  | remaining concentration | 101% |
| CCOCN(C(=O)CCl)c1c(C)cccc1CC | LC-MS/MS | herbicide solution | 2 h, 40 °C, added: 365 nm UV exposure |  | remaining amount | 17 ± 10.7% |
| CC[C@H](C)[C@H](NC(=O)[C@H](CCCNC(=N)N)NC(=O)[C@H](CCCNC(=N)N)NC(=O)[C@H](CC(C)C)NC(=O)[C@H](CCC(N)=O)NC(=O)[C@H](CCC(=O)O)NC(=O)[C@H](C)NC(=O)[C@@H](NC(=O)[C@H](CNC(=O)c1cc(S(=O)(=O)F)ccc1C)NC(C)=O)[C@@H](C)CC)C(=O)NCC(=O)N[C@@H](CC(=O)O)C(=O)N[C@@H](CCCNC(=N)N)C(=O)N[C@@H](Cc1ccccc1)C(N)=O | 1H NMR | aqueous buffer | 3 h 30 min, pH 7.5, room temperature |  | remaining intact compound | > 80% |

A few entries again:
| Compound | test | test system | conditions | scale | endpoint | value |
| --- | --- | --- | --- | --- | --- | --- |
| CCc1cccc(CC)c1N(COC)C(=O)CCl | LC-MS/MS | herbicide solution | 2 h, 40 °C, added: 365 nm UV exposure |  | remaining amount | 3.13 ± 0.56% |
| CC(C)OC(=O)[C@H](CCC(=O)C=[N+]=[N-])NC(=O)OC(OC(=O)C(C)(C)C)C(C)C (mixture of isomers) |  | swine plasma | 10 µM, 60 min, 37 °C |  | remaining compound | 100 ± 3% |
